# Assay results collected from several papers.
# Lines come from different studies, so protocols differ. “And” joins repeats or separate records; there may be more than shown.
# Technique: steady-state kinetics
# B1: enzyme (Candida albicans, UniProt A0A1D8PHX1); chain MISIIQNGISQLSSVSGLDEANLKILICTLLSFPFGIIFKRLPDHDYTLKNIYNVAVSCFYVFGICDLRFGISTLLISATGSYFITRYVRTKSMPWINFLFLMIHMAYSHFHLQFFKEYDPKSIDITGAQMILVMKLSAFGWNIHDGKQPRSTLNDFNKARAITKHPNVLPYIGYVFFYASLLTGPAFDYADYDKFIHGTLFDDVPQDKRPGKNKRRIPRSGVQAFKKFSLGFFWAFLLLQSDKFVTMEYMFSPEFVQYHGLFYRIIYMWILGFTFRLKYYTIWTIAEGACILCGIGYNGVDPETGEFKWNRVQNIDPWSFETGQNVHACLEAWNQNTNIWLKNYVYLRVAKPGKKPGFKSTIFTFTTSAFWHGTRPGYYLTFVVGALMQTVGKYYRRNFRPIFLEADGKTPKPTKIVYDFVCWVNTQLAFGFFVQPFVILGFTKSLECWATVYYWLLWVIAISFFAFSGPFAKSVSKFFKSLQPSYREQQRKSREDKYKLNNEEASIVEQAVGAKLGQDYDIPALGLPPFDVFTDFDQTEVDHDIQHLRKAWTSFRGRRGSITENDFDGLKDAYNNFTNEINDIFNTKKEEFKKEKLNKQN
# B2: enzyme S124A (Arabidopsis thaliana, UniProt O82390); chain MNARALLCSSNIHSLYTSNRPPEKTSSSRSLRNLKPSPKSLRVWIYPRNRSSVFRVLVRSSDKSESSNSYYVEGDKVSGNNDVVSDSPSSIVLPWWEEFPKRWVIVLLCFSAFLLCNMDRVNMAIAILPMSAEYGWNPATVGLIQSSFFWGYLLTQIAGGIWADTVGGKRVLGFGVIWWSIATILTPVAAKLGLPYLLVVRAFMGVGEGVAMPAMNNILSKWVPVQERSRSLALVYSGMYLGSVTGLAFSPFLIHQFGWPSVFYSFGSLGTVWLTLWLTKAESSPLEDPTLLPEERKLIADNCASKEPVKSIPWRLILSKPPVWALISCHFCHNWGTFILLTWMPTYYHQVLKFNLMESGLLSVFPWMTMAISANAGGWIADTLVSRGFSVTNVRKIMQTIGFLGPAFFLTQLKHIDSPTMAVLCMACSQGTDAFSQSGLYSNHQDIAPRYSGVLLGLSNTAGVLAGVLGTAATGHILQHGSWDDVFTISVGLYLVGTVIWNLFSTGEKIID
# B3: FMO3 D132H (Homo sapiens, UniProt P31513); chain GKKVAIIGAGVSGLASIRSCLEEGLEPTCFEKSNDIGGLWKFSDHAEEGRASIYKSVFSNSSKEMMCFPDFPFPDDFPNFMHNSKIQEYIIAFAKEKNLLKYIQFKTFVSSVNKHPDFATTGQWDVTTERHGKKESAVFDAVMVCSGHHVYPNLPKESFPGLNHFKGKCFHSRDYKEPGVFNGKRVLVVGLGNSGCDIATELSRTAEQVMISSRSGSWVMSRVWDNGYPWDMLLVTRFGTFLKNNLPTAISDWLYVKQMNARFKHENYGLMPLNGVLRKEPVFNDELPASILCGIVSVKPNVKEFTETSAIFEDGTIFEGIDCVIFATGYSFAYPFLDESIIKSRNNEIILFKGVFPPLLEKSTIAVIGFVQSLGAAIPTVDLQSRWAAQVIKGTCTLPSMEDMMNDINEKMEKKRKWFGKSETIQTDYIVYMDELSSFIGAKPNIPWLFLTDPKLAMEVYFGPCSPYQFRLVGPGQWPGARNAILTQWDRSLKPMQTRVVGRLQKPCFFFHWLKLFAIPILLIAVFLVLT
# B4: enzyme D382E (Arabidopsis thaliana, UniProt O82390); chain MNARALLCSSNIHSLYTSNRPPEKTSSSRSLRNLKPSPKSLRVWIYPRNRSSVFRVLVRSSDKSESSNSYYVEGDKVSGNNDVVSDSPSSIVLPWWEEFPKRWVIVLLCFSAFLLCNMDRVNMSIAILPMSAEYGWNPATVGLIQSSFFWGYLLTQIAGGIWADTVGGKRVLGFGVIWWSIATILTPVAAKLGLPYLLVVRAFMGVGEGVAMPAMNNILSKWVPVQERSRSLALVYSGMYLGSVTGLAFSPFLIHQFGWPSVFYSFGSLGTVWLTLWLTKAESSPLEDPTLLPEERKLIADNCASKEPVKSIPWRLILSKPPVWALISCHFCHNWGTFILLTWMPTYYHQVLKFNLMESGLLSVFPWMTMAISANAGGWIAETLVSRGFSVTNVRKIMQTIGFLGPAFFLTQLKHIDSPTMAVLCMACSQGTDAFSQSGLYSNHQDIAPRYSGVLLGLSNTAGVLAGVLGTAATGHILQHGSWDDVFTISVGLYLVGTVIWNLFSTGEKIID
# B5: CYP1A2 (Homo sapiens, UniProt P05177); chain ALSQSVPFSATELLLASAIFCLVFWVLKGLRPRVPKGLKSPPEPWGWPLLGHVLTLGKNPHLALSRMSQRYGDVLQIRIGSTPVLVLSRLDTIRQALVRQGDDFKGRPDLYTSTLITDGQSLTFSTDSGPVWAARRRLAQNALNTFSIASDPASSSSCYLEEHVSKEAKALISRLQELMAGPGHFDPYNQVVVSVANVIGAMCFGQHFPESSDEMLSLVKNTHEFVETASSGNPLDFFPILRYLPNPALQRFKAFNQRFLWFLQKTVQEHYQDFDKNSVRDITGALFKHSKKGPRASGNLIPQEKIVNLVNDIFGAGFDTVTTAISWSLMYLVTKPEIQRKIQKELDTVIGRERRPRLSDRPQLPYLEAFILETFRHSSFLPFTIPHSTTRDTTLNGFYIPKKCCVFVNQWQVNHDPELWEDPSEFRPERFLTADGTAINKPLSEKMMLFGMGKRRCIGEVLAKWEIFLFLAILLQQLEFSVPPGVKVDLTPIYGLTMKHARCEHVQARLRFSIN
# Chain of UniProt O60656 (whole entry, looked up): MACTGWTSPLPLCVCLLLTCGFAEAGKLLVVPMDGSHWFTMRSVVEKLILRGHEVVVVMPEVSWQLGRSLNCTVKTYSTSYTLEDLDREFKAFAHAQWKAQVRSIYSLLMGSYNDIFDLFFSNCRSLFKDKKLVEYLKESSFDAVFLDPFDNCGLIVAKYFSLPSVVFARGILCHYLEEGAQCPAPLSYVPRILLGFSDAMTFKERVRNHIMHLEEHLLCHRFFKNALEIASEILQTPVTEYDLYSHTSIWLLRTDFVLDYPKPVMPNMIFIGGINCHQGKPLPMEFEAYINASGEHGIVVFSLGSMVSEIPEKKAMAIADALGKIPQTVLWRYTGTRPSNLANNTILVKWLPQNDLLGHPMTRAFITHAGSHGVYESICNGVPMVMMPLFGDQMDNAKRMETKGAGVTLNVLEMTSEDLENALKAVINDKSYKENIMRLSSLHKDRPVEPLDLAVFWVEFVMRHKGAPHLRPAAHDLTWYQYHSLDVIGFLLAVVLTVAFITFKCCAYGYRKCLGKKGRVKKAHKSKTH
# Chain of UniProt Q01740 (whole entry, looked up): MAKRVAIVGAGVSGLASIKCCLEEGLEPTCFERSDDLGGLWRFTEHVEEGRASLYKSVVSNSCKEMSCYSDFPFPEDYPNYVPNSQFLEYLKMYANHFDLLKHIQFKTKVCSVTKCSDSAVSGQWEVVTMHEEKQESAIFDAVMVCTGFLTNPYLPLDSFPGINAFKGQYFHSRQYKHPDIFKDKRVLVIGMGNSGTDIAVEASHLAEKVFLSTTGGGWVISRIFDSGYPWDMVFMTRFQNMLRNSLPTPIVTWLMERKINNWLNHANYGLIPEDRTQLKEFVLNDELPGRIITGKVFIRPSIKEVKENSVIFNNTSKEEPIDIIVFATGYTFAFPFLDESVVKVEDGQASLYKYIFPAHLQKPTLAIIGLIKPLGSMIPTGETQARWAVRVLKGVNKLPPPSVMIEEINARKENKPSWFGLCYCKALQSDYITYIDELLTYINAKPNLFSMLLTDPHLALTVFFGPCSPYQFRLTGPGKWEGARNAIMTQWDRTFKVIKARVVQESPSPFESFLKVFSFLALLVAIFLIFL
# Chain of UniProt Q3SY77 (whole entry, looked up): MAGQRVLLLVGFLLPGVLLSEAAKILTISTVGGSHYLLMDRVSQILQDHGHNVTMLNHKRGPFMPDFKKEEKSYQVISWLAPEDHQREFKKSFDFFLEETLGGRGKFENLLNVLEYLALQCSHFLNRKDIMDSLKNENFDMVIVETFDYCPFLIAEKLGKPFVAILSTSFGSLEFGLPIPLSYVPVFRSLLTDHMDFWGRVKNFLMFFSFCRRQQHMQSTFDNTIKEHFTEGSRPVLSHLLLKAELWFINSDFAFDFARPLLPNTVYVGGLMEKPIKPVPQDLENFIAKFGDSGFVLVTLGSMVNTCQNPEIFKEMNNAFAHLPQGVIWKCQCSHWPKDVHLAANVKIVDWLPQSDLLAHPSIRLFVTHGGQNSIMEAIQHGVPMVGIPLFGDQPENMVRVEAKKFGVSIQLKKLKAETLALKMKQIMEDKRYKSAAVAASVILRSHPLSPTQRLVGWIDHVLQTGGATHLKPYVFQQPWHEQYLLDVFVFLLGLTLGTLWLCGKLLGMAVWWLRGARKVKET
Substance,substrate,system,conditions,Vmax/Km
"UGT3A2 (Homo sapiens, UniProt Q3SY77)",O=c1ccn([C@@H]2O[C@H](COP(=O)(O)OP(=O)(O)O[C@H]3OC[C@@H](O)[C@H](O)[C@H]3O)[C@@H](O)[C@H]2O)c(=O)[nH]1,,"pH 7.4, 37 °C, not purified, added: 1-OH-pyrene 16 µM, MgCl2 10 mM, alamethicin",1.4 µL/min/mg
"enzyme (Oryctolagus cuniculus, UniProt A0A5F9DQ59)",O=c1oc2c(O)c(O)ccc2cc1-c1nc2ccccc2s1,,"pH 7.4, 37 °C",235 µL/min/mg
B1 (enzyme),CCCCC/C=C\C/C=C\CCCCCCCC(=O)SCCNC(=O)CCNC(=O)[C@H](O)C(C)(C)COP(=O)(O)OP(=O)(O)OC[C@H]1O[C@@H](n2cnc3c(N)ncnc32)[C@H](O)[C@@H]1OP(=O)(O)O,,"pH 7.4, 37 °C, apparent, not purified",190 µL/min/mg
"UGT1A9 (Homo sapiens, UniProt O60656)",O=c1c(O)c(-c2ccc(O)c(O)c2)oc2cc(O)ccc12,,"pH 7.4, 37 °C",3090 µL/min/mg and 3520 µL/min/mg and 2300 µL/min/mg
"FMO1 (Homo sapiens, UniProt Q01740)",CN1CCC[C@H]1c1cccnc1,HEK293 microsomes,"37 °C, not purified, added: NADPH regenerating system",0.0155 µL/min/mg
B2 (enzyme S124A),O=P(O)(O)O,,"pH 6.5, 25 °C, apparent, not purified",18.3 µL/min/mg
B3 (FMO3 D132H),CN1CCC[C@H]1c1cccnc1,HEK293 microsomes,"37 °C, not purified, added: NADPH regenerating system",0.0039 µL/min/mg
B4 (enzyme D382E),O=P(O)(O)O,,"pH 6.5, 25 °C, apparent, not purified",35 µL/min/mg
B5 (CYP1A2),COc1cc2c(cc1CC=C(C)C)C(=O)C[C@@H](c1ccc(O)cc1)O2,,"pH 7.4, 37 °C",41.1 µL/min/mg
